Results gathered from unrelated publications.
Parts stem from different laboratories: compare values within a part only. Values joined by “and” are separate records of one study, mostly repeats; a detail may differ.
UniProt Q02763, sequence (whole entry, looked up): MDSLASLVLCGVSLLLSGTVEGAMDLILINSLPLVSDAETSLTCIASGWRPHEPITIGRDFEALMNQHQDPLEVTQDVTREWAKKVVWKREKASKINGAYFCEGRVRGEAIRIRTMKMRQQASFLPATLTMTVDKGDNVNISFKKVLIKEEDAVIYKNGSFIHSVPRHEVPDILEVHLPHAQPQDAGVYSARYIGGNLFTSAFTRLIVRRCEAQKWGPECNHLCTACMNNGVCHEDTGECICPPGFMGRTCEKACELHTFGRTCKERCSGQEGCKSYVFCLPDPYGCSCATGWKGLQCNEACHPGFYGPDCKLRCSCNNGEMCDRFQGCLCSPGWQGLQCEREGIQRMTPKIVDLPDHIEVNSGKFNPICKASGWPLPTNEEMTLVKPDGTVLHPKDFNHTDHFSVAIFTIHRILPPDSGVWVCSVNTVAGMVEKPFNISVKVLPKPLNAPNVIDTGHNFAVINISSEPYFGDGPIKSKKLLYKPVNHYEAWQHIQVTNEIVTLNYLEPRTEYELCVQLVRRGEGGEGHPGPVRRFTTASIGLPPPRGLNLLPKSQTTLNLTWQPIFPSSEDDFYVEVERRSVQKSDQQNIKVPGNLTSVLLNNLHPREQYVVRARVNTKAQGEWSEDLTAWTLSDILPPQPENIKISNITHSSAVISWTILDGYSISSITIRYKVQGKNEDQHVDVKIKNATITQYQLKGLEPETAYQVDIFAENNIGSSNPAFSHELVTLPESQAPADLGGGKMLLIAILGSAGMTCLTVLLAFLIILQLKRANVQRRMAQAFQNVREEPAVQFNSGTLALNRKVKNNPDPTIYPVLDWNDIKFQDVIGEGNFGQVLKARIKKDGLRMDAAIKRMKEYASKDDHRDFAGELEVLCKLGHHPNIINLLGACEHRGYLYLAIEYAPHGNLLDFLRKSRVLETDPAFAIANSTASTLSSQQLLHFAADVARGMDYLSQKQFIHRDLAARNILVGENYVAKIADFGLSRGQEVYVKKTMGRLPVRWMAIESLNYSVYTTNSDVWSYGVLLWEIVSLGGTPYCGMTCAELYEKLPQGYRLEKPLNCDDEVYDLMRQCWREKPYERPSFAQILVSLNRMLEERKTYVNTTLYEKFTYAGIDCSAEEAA
UniProt Q9UIK4, sequence (whole entry, looked up): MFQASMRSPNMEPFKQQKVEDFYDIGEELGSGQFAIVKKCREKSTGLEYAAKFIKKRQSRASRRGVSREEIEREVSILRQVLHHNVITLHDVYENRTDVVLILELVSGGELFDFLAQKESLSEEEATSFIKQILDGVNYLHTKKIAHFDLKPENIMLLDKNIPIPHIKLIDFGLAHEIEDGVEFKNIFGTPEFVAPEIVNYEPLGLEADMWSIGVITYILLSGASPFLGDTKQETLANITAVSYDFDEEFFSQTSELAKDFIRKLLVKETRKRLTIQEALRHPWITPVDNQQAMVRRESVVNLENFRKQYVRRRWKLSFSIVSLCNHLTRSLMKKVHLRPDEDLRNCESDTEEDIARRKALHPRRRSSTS
UniProt Q9Y6E0, sequence (whole entry, looked up): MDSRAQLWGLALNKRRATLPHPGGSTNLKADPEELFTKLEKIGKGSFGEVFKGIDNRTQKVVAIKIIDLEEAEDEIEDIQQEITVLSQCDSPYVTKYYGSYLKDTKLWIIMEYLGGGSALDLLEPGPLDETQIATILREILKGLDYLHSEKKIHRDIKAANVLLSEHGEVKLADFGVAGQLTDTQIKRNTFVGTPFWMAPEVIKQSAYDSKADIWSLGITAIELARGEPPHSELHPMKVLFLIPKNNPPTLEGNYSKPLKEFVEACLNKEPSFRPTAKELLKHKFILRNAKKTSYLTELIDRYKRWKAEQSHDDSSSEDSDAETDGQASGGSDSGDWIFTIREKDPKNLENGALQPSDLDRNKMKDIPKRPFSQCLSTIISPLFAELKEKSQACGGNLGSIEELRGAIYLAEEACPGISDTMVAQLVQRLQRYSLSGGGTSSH
UniProt O14757, sequence (whole entry, looked up): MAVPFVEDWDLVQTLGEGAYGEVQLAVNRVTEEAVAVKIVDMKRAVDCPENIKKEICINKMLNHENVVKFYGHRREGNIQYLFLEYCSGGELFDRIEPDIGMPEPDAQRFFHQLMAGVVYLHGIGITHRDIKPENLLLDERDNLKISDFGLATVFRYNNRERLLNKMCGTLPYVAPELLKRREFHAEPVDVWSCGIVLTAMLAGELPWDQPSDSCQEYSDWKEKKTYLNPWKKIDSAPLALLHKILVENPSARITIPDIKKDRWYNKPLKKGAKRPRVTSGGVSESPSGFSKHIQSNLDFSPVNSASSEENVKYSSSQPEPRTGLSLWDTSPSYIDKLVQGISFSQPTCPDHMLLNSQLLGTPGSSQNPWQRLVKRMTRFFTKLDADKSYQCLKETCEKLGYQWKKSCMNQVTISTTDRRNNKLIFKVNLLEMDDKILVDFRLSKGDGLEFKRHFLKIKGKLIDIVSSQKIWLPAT
UniProt Q8NFD2, sequence (whole entry, looked up): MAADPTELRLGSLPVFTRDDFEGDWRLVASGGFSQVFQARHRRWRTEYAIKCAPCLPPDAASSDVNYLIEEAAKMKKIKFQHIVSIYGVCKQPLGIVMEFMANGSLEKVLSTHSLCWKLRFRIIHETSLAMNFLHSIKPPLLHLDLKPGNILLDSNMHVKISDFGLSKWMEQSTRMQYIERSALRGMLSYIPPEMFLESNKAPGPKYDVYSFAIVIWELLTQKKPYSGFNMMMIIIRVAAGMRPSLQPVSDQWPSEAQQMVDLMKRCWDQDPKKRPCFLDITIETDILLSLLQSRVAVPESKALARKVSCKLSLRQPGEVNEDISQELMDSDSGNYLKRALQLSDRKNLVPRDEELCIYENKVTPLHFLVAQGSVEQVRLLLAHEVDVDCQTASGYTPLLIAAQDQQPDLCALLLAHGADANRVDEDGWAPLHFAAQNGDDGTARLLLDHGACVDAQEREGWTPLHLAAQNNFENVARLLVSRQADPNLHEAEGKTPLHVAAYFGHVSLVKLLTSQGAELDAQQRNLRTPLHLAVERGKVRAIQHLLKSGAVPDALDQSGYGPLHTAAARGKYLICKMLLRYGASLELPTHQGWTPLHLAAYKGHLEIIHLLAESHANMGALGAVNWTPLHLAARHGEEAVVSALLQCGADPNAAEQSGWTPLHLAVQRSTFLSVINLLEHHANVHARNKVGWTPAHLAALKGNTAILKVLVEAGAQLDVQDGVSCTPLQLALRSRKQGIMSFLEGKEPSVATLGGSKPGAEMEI
UniProt Q92918, sequence (whole entry, looked up): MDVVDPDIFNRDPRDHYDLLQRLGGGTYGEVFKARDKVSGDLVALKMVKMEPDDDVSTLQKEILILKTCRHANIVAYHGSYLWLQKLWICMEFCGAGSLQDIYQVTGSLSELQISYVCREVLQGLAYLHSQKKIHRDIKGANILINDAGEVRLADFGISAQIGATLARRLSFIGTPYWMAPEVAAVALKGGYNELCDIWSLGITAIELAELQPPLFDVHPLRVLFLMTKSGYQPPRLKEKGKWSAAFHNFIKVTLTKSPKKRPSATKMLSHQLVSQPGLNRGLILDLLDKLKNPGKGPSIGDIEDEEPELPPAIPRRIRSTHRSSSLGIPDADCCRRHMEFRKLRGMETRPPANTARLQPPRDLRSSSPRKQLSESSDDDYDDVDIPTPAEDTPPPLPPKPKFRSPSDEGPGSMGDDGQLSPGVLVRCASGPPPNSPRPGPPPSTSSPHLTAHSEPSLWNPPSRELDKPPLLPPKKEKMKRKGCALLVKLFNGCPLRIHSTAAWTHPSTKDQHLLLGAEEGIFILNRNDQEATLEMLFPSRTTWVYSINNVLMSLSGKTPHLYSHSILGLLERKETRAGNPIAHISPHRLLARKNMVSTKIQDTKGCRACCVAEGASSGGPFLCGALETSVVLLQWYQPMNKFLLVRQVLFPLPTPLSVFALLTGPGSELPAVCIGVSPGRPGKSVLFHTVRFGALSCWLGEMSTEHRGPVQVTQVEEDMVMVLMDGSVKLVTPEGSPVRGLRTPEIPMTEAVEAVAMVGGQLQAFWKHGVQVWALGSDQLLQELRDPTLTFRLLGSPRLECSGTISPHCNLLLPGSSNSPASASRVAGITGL

Sample 1
Structure (SMILES): CNC(=O)Nc1ccc2c(c1)CC[C@@]21OC(=O)N(CC(=O)N(Cc2ccc(F)cc2)[C@@H](C)C(F)(F)F)C1=O
Observed: cell-free assay
Technique: competition with immobilised ligand
Concentration: 1 µM
target | remaining binding
Ribosomal protein S6 kinase alpha-5, C-terminal kinase domain (RPS6KA5, Homo sapiens, UniProt O75582) | 63%
EPHA2 (Homo sapiens, UniProt P29317) | 76%
DAPK2 (Homo sapiens, UniProt Q9UIK4) | 92%
LRRK2 (Homo sapiens, UniProt Q5S007, G2019S) | 100%
ANKK1 (Homo sapiens, UniProt Q8NFD2) | 81%
CHEK1 (Homo sapiens, UniProt O14757) | 98%
MAPK3 (Homo sapiens, UniProt P27361) | 92%
STK24 (Homo sapiens, UniProt Q9Y6E0) | 90%
MAPK6 (Homo sapiens, UniProt Q16659) | 100%
PTK6 (Homo sapiens, UniProt Q13882) | 87%
CDK4 (Homo sapiens, UniProt P11802) | 55%
MATK (Homo sapiens, UniProt P42679) | 71%
PIP5K1A (Homo sapiens, UniProt Q99755) | 95%
PLK3 (Homo sapiens, UniProt Q9H4B4) | 86%
MAP4K1 (Homo sapiens, UniProt Q92918) | 99%
STK35 (Homo sapiens, UniProt Q8TDR2) | 89%
Tyrosine-protein kinase JAK1, JH2 (JAK1, Homo sapiens, UniProt P23458) | 100%
MERTK (Homo sapiens, UniProt Q12866) | 82%
SYK (Homo sapiens, UniProt P43405) | 70%
PIK3CA (Homo sapiens, UniProt P42336, E545K) | 80%
PRPF4B (Homo sapiens, UniProt Q13523) | 86%
TEK (Homo sapiens, UniProt Q02763) | 87%

Sample 2
Host: human
Matrix: microsomes or S9
Concentration: 2 µM
Time: 0.5 h
SMILES | remaining compound
CS(=O)(=O)N(C#Cc1ccccc1F)Cc1ccccc1 | 7.03%
c1ccc(-c2csc(Oc3ccncc3)n2)cc1 | 57.7%
CCCC1(CC(=O)N2CCN(C)CC2)CCOC(C)(C)C1 (centres unmarked) | 78.1%
CC(=O)N(Cc1ccc(F)cc1)c1ccsc1C(=O)O | 88.4%
Cc1nc(-c2ccc(NC(=O)c3cscn3)cc2Cl)n[nH]1 | 86%

Sample 3
Target: Ephrin type-A receptor 7 (EPHA7, Homo sapiens, UniProt Q15375)
UniProt Q15375, sequence (whole entry, looked up): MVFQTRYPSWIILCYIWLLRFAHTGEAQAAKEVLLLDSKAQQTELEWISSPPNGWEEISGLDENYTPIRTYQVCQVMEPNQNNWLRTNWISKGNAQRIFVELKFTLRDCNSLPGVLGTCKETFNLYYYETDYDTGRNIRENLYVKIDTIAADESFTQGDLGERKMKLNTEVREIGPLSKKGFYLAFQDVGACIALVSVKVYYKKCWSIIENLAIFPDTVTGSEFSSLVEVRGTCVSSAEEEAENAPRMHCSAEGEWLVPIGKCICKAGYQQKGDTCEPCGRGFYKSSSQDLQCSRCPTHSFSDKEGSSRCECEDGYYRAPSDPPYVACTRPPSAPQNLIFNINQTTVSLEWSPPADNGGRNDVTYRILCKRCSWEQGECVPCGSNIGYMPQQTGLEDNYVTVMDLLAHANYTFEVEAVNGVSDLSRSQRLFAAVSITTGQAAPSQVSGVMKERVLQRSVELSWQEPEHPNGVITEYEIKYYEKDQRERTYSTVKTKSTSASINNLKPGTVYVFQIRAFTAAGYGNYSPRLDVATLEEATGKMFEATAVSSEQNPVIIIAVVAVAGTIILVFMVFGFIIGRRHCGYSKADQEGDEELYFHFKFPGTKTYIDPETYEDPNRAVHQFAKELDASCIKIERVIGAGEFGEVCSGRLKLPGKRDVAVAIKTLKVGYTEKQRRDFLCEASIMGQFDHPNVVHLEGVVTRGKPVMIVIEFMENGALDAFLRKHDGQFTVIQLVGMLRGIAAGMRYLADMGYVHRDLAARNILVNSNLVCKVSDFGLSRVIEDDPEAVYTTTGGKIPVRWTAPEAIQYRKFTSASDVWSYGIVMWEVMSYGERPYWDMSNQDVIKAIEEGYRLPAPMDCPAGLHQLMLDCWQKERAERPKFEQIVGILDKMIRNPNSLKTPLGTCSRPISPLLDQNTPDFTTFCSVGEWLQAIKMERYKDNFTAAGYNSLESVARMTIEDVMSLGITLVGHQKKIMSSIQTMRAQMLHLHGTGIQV
Observed: enzyme activity
Action: inhibitor
Concentration: 0.5 µM
Reference: control
SMILES | remaining activity [%]
Cc1ccc(Nc2nccc(N(C)c3ccc4c(C)n(C)nc4c3)n2)cc1S(N)(=O)=O | 94.1
Nc1ncnc2n[nH]c(Nc3ccc(F)cc3)c12 | 101
CO[C@H]1C[C@@H]2CC[C@@H](C)[C@@](O)(O2)C(=O)C(=O)N2CCCC[C@H]2C(=O)O[C@H]([C@H](C)C[C@@H]2CC[C@@H](O)[C@H](OC)C2)CC(=O)[C@H](C)/C=C(\C)[C@@H](O)[C@@H](OC)C(=O)[C@H](C)C[C@H](C)/C=C/C=C/C=C/1C | 89.7
O=C(Nc1cccc(Nc2cc(Nc3cccc(C(F)(F)F)c3)ncn2)c1)C1CC1 | 101
Cn1c2ccccc2c2c3c(c4c5ccccc5n(CCC#N)c4c21)CNC3=O | 62.6
COc1cc2ncnc(Nc3ccc(F)c(Cl)c3)c2cc1OCCCN1CCOCC1 | 74.3
Cc1cccc(-c2[nH]c(C(C)(C)C)nc2-c2ccc3c(c2)OCO3)n1 | 81.6
O=C(O)c1ccc2c3c1cccc3c(=O)n1c3ccccc3nc21 | 103
N#CC(C#N)=C(N)/C(C#N)=C/c1ccc(O)cc1 | 90.5
Nc1[nH]nc2nc3ccccc3nc12 | 95.3
OCC(O)CCON=C1C(c2c(O)[nH]c3ccccc23)=Nc2ccccc21 (centres unmarked) | 71.4
C#Cc1cccc(Nc2ncnc3cc(OCCOC)c(OCCOC)cc23)c1 | 69.8
O=c1c2ccccc2[nH]c(=S)n1CCN1CCC(=C(c2ccc(F)cc2)c2ccc(F)cc2)CC1 | 96.9
COc1ccc(C(=O)Nc2sc3c(c2C(N)=O)CCCC3)cc1OC | 96.2
COc1ccc(CNC(=O)Nc2ncc([N+](=O)[O-])s2)cc1 | 96.6

Other studies, line by line
Compound | target or system | assay | test system | conditions | how to read | endpoint | value
c1ccc2c(-c3nn4c(-c5ccncc5)nnc4s3)c[nH]c2c1 | Gaucher fibroblasts | qPCR, item: GBA1 mRNA |  | 0.5 µM, unit not given | reference: vehicle | mRNA level | 0.804 and 0.58 and 0.916
CC(C)n1cnc(-c2ccc(F)cc2)c1-c1ncc(C(=O)Nc2ccc(N3CCN(C)CC3)cc2)[nH]1 |  | phase 2a clinical trial | patients with idiopathic pulmonary fibrosis | 30 mg once daily, without standard of care |  | patients with ALT increase | 0%

A few entries again (sample 3):
SMILES | remaining activity [%]
COc1ccc(C(=O)Nc2sc3c(c2C(N)=O)CCCC3)cc1OC | 96.2
O=c1c2ccccc2[nH]c(=S)n1CCN1CCC(=C(c2ccc(F)cc2)c2ccc(F)cc2)CC1 | 96.9
Cn1c2ccccc2c2c3c(c4c5ccccc5n(CCC#N)c4c21)CNC3=O | 62.6
O=C(O)c1ccc2c3c1cccc3c(=O)n1c3ccccc3nc21 | 103
O=C(Nc1cccc(Nc2cc(Nc3cccc(C(F)(F)F)c3)ncn2)c1)C1CC1 | 101
